# Experimental data from different studies.
# Protocols differ between the studies behind these lines. “And” joins repeats or separate records; there may be more than shown. ± gives the spread as reported.
SMILES,test,test system,setting,half-life
C[C@H](NC(=O)c1c(C(F)F)nn(C)c1Oc1cccc(C(F)(F)F)c1)c1ccc(C(=O)O)cc1,,"human, plasma","750 mg, cycle 1 day 8, mean",522 min
O=c1ccc2ncc(=O)n3c2n1C[C@H]3CN1CCC(NCc2cc3c(cn2)OCCC3)CC1,,"healthy human volunteers, plasma","oral, dose not given, arithmetic mean, with: rifampicin",666 min
C[C@@H]1CC[C@H]2[C@@H](C)C(=O)O[C@@H]3O[C@@]4(C)CC[C@@H]1[C@]32OO4,,"human, male, plasma","oral, dose not given, day 2",90 ± 42 min
Cn1ncc(-c2nc(N[C@H]3CC[C@H](N)CC3)ncc2Cl)c1CC1CC1,,human patients,"oral, 42 mg, day 5",1260 min
CCC(CC)COC(=O)[C@H](C)N[P@](=O)(OC[C@H]1O[C@@](C#N)(c2ccc3c(N)ncnn23)[C@H](O)[C@@H]1O)Oc1ccccc1,,"human, plasma","intravenous, 100 mg single dose",48.6 min
C[C@@](Cc1ccc(O)c(O)c1)(NN)C(=O)O,measured: levodopa,"healthy human volunteers, plasma","subcutaneous, 24 h infusion, harmonic mean, crossover",178 min
COc1ccc2c(c1)[C@]13CCCC[C@@H]1[C@H](C2)N(C)CC3,,human female,"30 mg, day 22",760 ± 135 min
CCN(CC)C(=O)[C@@H]1C=C2c3cccc4[nH]cc(c34)C[C@H]2N(C)C1,,human,"oral, 100 µg",194 min and 172 min and 166 min and 217 min and 158 min and 229 min and 234 min and 199 min
Cc1ncc2n1-c1ccc(Cl)cc1C(c1ccccc1F)=NC2,,human,"intravenous, 3 µg, single bolus, mean",125 min
OCc1ncc2n1-c1ccc(Cl)cc1C(c1ccccc1F)=NC2,,"humans, plasma","3 mg of midazolam, midazolam alone",324 min
OCc1ncc2n1-c1ccc(Cl)cc1C(c1ccccc1F)=NC2,,"human, plasma","7.5 mg midazolam, day 1, arithmetic mean, metabolite of midazolam, with: midazolam 7.5 mg alone",240 min
C[C@]1(CO)Cc2ncn(-c3ccc(C#N)c(Cl)c3)c2C(=O)O1,,"human, plasma","10 mg single dose, geometric mean",354 min
CC(=O)c1c(C)c2cnc(Nc3ccc(C4CCN(CCS(C)(=O)=O)CC4)cn3)nc2n(C2CCCC2)c1=O,,"human, plasma","oral, 50 mg twice daily, day 21, multiple dose, with: letrozole",317 min

# Some of these lines once more:
SMILES,test,test system,setting,half-life
COc1ccc2c(c1)[C@]13CCCC[C@@H]1[C@H](C2)N(C)CC3,,human female,"30 mg, day 22",760 ± 135 min
